Experimental data of several laboratories.
Every numbered part comes from another study and shows a few of its results, in no order.
Sequence of UniProt Q13557 (whole entry, looked up): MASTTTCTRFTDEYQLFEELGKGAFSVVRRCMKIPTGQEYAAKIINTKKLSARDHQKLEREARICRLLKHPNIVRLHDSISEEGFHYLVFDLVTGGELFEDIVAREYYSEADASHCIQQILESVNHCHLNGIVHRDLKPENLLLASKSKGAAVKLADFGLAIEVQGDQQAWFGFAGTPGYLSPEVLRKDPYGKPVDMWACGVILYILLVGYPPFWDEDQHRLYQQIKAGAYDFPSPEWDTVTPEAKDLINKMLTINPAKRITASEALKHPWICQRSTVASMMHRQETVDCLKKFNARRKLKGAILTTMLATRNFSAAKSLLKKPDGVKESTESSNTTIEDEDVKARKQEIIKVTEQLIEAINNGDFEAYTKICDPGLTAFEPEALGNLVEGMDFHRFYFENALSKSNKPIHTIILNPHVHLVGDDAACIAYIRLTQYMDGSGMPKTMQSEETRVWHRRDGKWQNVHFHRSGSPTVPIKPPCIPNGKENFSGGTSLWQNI
Sequence of UniProt P51955 (whole entry, looked up): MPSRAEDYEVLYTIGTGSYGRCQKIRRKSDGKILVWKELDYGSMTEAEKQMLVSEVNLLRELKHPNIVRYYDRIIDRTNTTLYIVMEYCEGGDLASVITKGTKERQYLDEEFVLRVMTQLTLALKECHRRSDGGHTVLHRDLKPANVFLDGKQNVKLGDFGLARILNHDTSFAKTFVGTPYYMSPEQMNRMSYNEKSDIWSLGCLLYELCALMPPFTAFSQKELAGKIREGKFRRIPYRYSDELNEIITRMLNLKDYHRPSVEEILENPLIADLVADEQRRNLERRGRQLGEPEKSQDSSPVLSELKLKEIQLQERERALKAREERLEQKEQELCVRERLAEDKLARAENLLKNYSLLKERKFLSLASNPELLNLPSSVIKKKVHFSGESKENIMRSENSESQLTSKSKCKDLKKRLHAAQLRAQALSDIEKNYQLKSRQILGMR
Sequence of UniProt O96017 (whole entry, looked up): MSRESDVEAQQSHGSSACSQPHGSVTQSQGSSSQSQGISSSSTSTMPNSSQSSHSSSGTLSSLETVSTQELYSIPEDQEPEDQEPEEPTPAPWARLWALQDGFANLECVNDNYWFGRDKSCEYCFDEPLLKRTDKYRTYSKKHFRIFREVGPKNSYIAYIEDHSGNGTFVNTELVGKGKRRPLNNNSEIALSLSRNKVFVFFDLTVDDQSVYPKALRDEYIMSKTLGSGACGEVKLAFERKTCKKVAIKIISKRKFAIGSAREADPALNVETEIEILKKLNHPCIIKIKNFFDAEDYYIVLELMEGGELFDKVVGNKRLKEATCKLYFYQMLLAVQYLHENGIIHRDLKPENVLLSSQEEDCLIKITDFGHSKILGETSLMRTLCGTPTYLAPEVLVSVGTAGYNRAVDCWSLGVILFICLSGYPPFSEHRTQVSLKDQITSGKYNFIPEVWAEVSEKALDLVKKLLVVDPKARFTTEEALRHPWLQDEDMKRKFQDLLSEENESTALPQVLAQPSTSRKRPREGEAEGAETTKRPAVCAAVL
Sequence of UniProt O95747 (whole entry, looked up): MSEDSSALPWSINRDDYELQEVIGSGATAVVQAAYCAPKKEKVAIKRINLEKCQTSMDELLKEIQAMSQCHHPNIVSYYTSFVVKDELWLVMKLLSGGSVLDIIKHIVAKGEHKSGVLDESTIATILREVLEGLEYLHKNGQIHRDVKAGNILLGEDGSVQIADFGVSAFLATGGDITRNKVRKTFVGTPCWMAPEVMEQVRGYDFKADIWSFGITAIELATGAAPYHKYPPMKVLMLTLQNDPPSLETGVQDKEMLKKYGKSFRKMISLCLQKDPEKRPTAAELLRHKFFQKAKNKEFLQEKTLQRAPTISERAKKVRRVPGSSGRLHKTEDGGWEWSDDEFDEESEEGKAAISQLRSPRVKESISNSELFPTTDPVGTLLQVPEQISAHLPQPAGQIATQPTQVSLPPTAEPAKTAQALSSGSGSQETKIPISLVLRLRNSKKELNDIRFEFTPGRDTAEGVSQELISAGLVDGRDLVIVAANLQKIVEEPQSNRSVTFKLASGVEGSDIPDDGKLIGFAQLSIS
Sequence of UniProt P37173 (whole entry, looked up): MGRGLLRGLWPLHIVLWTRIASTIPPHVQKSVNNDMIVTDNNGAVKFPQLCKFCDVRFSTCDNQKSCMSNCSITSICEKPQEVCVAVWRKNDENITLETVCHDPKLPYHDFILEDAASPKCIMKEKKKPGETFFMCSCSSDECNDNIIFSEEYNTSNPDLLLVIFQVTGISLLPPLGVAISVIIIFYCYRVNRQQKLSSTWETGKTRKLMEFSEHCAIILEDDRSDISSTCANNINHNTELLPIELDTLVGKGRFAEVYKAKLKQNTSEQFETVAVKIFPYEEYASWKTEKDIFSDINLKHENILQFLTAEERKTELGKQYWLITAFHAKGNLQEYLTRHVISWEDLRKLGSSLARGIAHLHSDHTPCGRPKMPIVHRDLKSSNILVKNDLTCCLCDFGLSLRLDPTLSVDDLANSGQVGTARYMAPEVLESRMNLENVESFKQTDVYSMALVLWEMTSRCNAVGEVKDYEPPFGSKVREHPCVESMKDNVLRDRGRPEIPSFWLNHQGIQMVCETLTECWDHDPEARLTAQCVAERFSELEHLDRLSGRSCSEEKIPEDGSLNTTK
Sequence of UniProt P05771 (whole entry, looked up): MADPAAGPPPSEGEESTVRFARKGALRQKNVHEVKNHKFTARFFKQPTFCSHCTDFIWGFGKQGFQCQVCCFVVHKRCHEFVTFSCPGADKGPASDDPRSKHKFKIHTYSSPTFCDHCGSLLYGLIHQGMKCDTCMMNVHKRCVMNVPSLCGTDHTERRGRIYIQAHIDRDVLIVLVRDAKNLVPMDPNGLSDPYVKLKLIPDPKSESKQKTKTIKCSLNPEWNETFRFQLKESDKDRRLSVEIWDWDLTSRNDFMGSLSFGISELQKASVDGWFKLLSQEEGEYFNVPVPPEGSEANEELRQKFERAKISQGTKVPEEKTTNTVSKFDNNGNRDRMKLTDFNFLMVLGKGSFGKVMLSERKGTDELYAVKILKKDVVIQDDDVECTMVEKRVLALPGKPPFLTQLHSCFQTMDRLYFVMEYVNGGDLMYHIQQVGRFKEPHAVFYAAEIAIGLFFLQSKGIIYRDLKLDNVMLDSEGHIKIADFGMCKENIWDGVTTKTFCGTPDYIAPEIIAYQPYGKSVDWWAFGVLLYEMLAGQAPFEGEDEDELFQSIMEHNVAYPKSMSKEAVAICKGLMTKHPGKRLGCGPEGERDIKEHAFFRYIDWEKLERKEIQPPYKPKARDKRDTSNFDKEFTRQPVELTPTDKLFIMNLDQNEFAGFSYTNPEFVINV
Sequence of UniProt O94804 (whole entry, looked up): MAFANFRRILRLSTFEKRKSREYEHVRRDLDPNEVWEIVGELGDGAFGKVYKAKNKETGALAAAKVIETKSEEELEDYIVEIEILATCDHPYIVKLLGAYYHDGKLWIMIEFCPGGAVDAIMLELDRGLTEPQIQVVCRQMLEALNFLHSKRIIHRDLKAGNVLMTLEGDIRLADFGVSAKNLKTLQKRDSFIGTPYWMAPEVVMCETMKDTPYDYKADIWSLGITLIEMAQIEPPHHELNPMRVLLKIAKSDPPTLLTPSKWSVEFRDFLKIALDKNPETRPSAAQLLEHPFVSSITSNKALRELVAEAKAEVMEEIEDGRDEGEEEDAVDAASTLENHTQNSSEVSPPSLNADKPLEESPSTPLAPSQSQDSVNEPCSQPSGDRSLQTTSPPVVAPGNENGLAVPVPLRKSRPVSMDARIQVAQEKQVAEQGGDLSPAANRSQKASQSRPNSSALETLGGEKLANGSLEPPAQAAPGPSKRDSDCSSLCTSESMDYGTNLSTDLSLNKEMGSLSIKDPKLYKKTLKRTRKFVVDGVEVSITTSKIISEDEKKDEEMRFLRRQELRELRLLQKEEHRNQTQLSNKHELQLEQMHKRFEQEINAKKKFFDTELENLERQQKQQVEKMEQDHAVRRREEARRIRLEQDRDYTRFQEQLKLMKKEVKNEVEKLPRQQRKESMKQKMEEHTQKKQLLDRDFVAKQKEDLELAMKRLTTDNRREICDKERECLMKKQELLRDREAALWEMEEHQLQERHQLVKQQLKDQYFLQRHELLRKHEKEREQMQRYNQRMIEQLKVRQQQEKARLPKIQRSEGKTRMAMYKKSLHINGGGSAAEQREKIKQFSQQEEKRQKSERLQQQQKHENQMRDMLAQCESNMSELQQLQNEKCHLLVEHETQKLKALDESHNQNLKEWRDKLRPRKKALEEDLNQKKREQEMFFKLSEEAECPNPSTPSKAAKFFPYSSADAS
Sequence of UniProt P45984 (whole entry, looked up): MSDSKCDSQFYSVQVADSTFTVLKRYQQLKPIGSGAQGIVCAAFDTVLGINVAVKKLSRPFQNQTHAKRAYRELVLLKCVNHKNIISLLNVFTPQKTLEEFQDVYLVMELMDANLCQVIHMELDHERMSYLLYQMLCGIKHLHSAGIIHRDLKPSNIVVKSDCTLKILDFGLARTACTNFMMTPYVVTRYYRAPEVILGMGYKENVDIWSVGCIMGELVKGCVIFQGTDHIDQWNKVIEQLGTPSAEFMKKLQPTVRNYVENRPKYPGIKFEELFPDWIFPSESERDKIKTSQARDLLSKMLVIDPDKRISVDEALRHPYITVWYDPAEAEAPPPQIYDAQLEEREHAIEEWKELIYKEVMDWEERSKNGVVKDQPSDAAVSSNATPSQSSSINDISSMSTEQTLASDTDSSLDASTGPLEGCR

Sample 1
Compound: N/C(=N\[N+](=O)[O-])N/N=C\c1ccc(-c2cccc([N+](=O)[O-])c2)o1
Read-out: enzyme activity
Mode: inhibitor
Tested at: 0.5 µM
Reference: control
| target | remaining activity [%] |
| --- | --- |
| CAMK2D (Homo sapiens, UniProt Q13557) | 90.1 |
| PRKCA (Homo sapiens, UniProt P17252) | 115 |
| MAPK9 (Homo sapiens, UniProt P45984) | 111 |
| GRK3 (Homo sapiens, UniProt P35626) | 102 |
| OXSR1 (Homo sapiens, UniProt O95747) | 102 |
| STK11 (Homo sapiens, UniProt Q15831) | 98.7 |
| PRKACA (Homo sapiens, UniProt P17612) | 93.3 |
| TGFBR2 (Homo sapiens, UniProt P37173) | 123 |
| STK10 (Homo sapiens, UniProt O94804) | 99.6 |
| Protein kinase C beta type, isoform beta-I (PRKCB, Homo sapiens, UniProt P05771) | 88.9 |
| cGMP-dependent protein kinase 1, isoform beta (PRKG1, Homo sapiens, UniProt Q13976) | 95.8 |
| CHEK2 (Homo sapiens, UniProt O96017) | 104 |
| NEK2 (Homo sapiens, UniProt P51955) | 88.9 |
| MAP3K3 (Homo sapiens, UniProt Q99759) | 93.8 |

Sample 2
Cell line: HEK-293T
Read-out: pseudovirus infection
Technique: FDA-approved drug library counter-screen
Organism: VSV pseudotyped with VSV-G
Tested at: 10 µM
Time: 16 h
Reference: vehicle-treated
| SMILES | GFP-positive cells [%] |
| --- | --- |
| CCCc1nc(C(C)(C)O)c(C(=O)OCc2oc(=O)oc2C)n1Cc1ccc(-c2ccccc2-c2nnn[nH]2)cc1 | 93.7 |
| CCN(CC)C(=O)N1CCN(C)CC1 | 98.8 |
| CC(=O)/N=c1/sc(S(N)(=O)=O)nn1C | 105 |
| C[C@]12CCC(=O)C=C1[C@@H]1C[C@@H]1[C@H]1[C@@H]3[C@@H]4C[C@@H]4[C@@]4(CCC(=O)O4)[C@@]3(C)CC[C@@H]12 | 93.8 |
| OCc1ccccc1 | 132 |
| CC(=O)c1c(C)c2cnc(Nc3ccc(N4CCNCC4)cn3)nc2n(C2CCCC2)c1=O | 125 |
| CC[C@@H]1/C=C(\C)C[C@H](C)C[C@H](OC)[C@H]2O[C@@](O)(C(=O)C(=O)N3CCCC[C@H]3C(=O)O[C@H](/C(C)=C/[C@@H]3CC[C@H](Cl)[C@H](OC)C3)[C@H](C)[C@@H](O)CC1=O)[C@H](C)C[C@@H]2OC | 116 |
| O=C(O[C@H]1CN2CCC1CC2)N1CCc2ccccc2[C@@H]1c1ccccc1 | 125 |
| C[N+]12CCC(CC1)C(OC(=O)C(O)(c1ccccc1)c1ccccc1)C2 (stereo not shown) | 132 |
| N[C@@H](Cc1ccc(O)c(O)c1)C(=O)O | 84 |
| CNS(=O)(=O)Cc1ccc2[nH]cc(CCN(C)C)c2c1 | 84.1 |
| CC(=O)OC(C)C[N+](C)(C)C (stereo not shown) | 123 |
| Nc1nc(Cl)nc2c1ncn2[C@H]1C[C@H](O)[C@@H](CO)O1 | 98.8 |
| C[C@H](N)[C@H](O)c1cccc(O)c1 | 93 |
| CC(=O)NS(=O)(=O)c1ccc(N)cc1 | 129 |
| Cc1noc(NS(=O)(=O)c2ccc(N)cc2)c1C | 90.6 |
| COc1ccc(CN(C(=O)[C@@H](N)Cc2c(C)cc(C(N)=O)cc2C)[C@@H](C)c2ncc(-c3ccccc3)[nH]2)cc1C(=O)O | 113 |
| C[C@H]1C[C@H]2[C@@H]3CCC4=CC(=O)C=C[C@]4(C)[C@@]3(F)[C@@H](O)C[C@]2(C)[C@@]1(O)C(=O)CO | 129 |
| CC[C@H]1OC(=O)[C@H](C)[C@@H](O[C@H]2C[C@@](C)(OC)[C@@H](O)[C@H](C)O2)[C@H](C)[C@@H](O[C@@H]2O[C@H](C)C[C@H](N(C)C)[C@H]2O)[C@](C)(O)C[C@@H](C)CN(C)[C@H](C)[C@@H](O)[C@]1(C)O | 101 |
| Nc1nc(O)c2ncn(COC(CO)CO)c2n1 | 106 |
| OC[C@@H](O)[C@@H](O)[C@H](O)[C@@H](O)CO | 85.3 |
| NCCCNCCSP(=O)(O)O | 116 |
| CC(=O)OCC(=O)[C@@]1(O)CC[C@H]2[C@@H]3CCC4=CC(=O)CC[C@]4(C)[C@H]3C(=O)C[C@@]21C | 133 |
| CCOC(=O)C1=C(C)NC(C)=C(C(=O)OC)C1c1cccc(Cl)c1Cl (stereo not shown) | 14.9 |
| COCCc1ccc(OCC(O)CNC(C)C)cc1 (stereo not shown) | 77.7 |

Sample 3
Target: Delta-type opioid receptor (OPRD1, Homo sapiens, UniProt P41143)
Sequence of UniProt P41143 (whole entry, looked up): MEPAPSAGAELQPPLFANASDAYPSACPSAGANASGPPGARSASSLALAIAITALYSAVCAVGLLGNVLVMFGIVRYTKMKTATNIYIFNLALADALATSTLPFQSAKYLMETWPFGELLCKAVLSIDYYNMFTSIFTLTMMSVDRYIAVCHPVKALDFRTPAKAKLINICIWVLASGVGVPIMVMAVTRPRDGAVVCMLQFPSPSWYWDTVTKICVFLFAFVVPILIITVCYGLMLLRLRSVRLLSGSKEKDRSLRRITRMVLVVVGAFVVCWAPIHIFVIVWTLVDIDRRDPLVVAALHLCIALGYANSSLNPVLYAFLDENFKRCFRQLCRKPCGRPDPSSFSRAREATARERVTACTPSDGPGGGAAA
Read-out: ligand displacement
Tested at: 10 µM
| SMILES | inhibition |
| --- | --- |
| CC(=O)N1CCC(c2ccc(C(=O)NC3=NCCN3)cc2C(F)(F)F)CC1 | -0.82% |
| CN([C@@H]1CCc2c(CC(=O)O)c3ccccc3n2C1)S(=O)(=O)c1ccc(F)cc1 | -10.7% |
| CCc1ccccc1C(=O)Nc1n[nH]c2c(C)c(F)c(C3C(C#N)=C(C)N(C)C(C)=C3C#N)cc12 | 20.5% |
| Nc1nc(NCc2ccccc2)nc(-c2ccccc2CO)n1 | 12.5% |
| Nc1cnc(N2CCc3cc(S(=O)(=O)Nc4c(F)cc(Cl)cc4F)cc(N4CCCC4=O)c32)nc1 | -1.24% |
| NS(=O)(=O)c1cc(NC(=O)Cc2ccccc2)ccc1Oc1cccc(Cl)c1 | 20.5% |
| c1ccc(C2CCN(c3cnc4c(N5CCOCC5)nccn34)CC2)cc1 | 2.73% |
| O=C(N[C@H]1CCCCC/C=C\C2C[C@@]2(C(=O)O)NC(=O)[C@@H]2C[C@@H](Oc3ccncc3)CN2C1=O)OC1CCCC1 (stereo partly shown) | -2.02% |
| CNC(=N)NCCC[C@H](NC(=O)[C@H](CC(C)C)NC(=O)NNC(=O)[C@H](Cc1ccccc1)NC(=O)[C@H](CO)NC(=O)[C@H](CC(N)=O)NC(=O)[C@@H](Cc1ccncc1)NC(=O)[C@H](N)Cc1ccc(O)cc1)C(=O)N[C@@H](Cc1ccccc1)C(N)=O | -32.3% |
| Cc1c(N2CCNCC2)nc2ccc(Br)cc2c1C(=O)NC[C@H](CCC(=O)O)c1ccccc1Cl | 36% |
| COc1cccc(NC(=O)c2nc3scc(CN(C)Cc4ccccc4)c3c(=O)[nH]2)c1 | -5.54% |
| CC(=O)Nc1ncc(CN2CCC[C@H](Cc3cc(C)nc(C)c3)C2)s1 | 11.8% |
| COCCOc1nc(-c2ccc(Cl)nc2)nc2c1CN(C(=O)c1ncn3ccccc13)CC2 | 6.52% |
| c1ccc(N2CCN(Cc3nc4ccccc4[nH]3)CC2)nc1 | 15.3% |
| CCC(F)(F)c1cc(N2CCC(S(C)(=O)=O)CC2)nc2sc(C(N)=O)c(N)c12 | 3.97% |
| CN1CCN(c2ccnc(NCCc3ccccc3)n2)CC1 | 8.02% |
| CN(C)CC#Cc1ccc(OCCCc2sc(N3CCc4cccc(C(=O)Nc5nc6ccccc6s5)c4C3)nc2C(=O)O)c(F)c1 | 54.6% |
| Cc1ccc(-c2cnc([C@@]3(O)CC[C@H](C(=O)O)C(C)(C)C3)s2)cc1Nc1cccc(C(F)(F)F)n1 | 25.1% |

Other studies, line by line
| Compound | target | test | conditions | endpoint | result |
| --- | --- | --- | --- | --- | --- |
| C[S+]([O-])CCCCN=C=S (stereo not shown) | chymotrypsin | enzyme activity | concentration not given | inhibition | 8.5% |

Repeated from above (sample 2):
| SMILES | GFP-positive cells [%] |
| --- | --- |
| CC(=O)c1c(C)c2cnc(Nc3ccc(N4CCNCC4)cn3)nc2n(C2CCCC2)c1=O | 125 |
| NCCCNCCSP(=O)(O)O | 116 |
| N[C@@H](Cc1ccc(O)c(O)c1)C(=O)O | 84 |
| CC[C@H]1OC(=O)[C@H](C)[C@@H](O[C@H]2C[C@@](C)(OC)[C@@H](O)[C@H](C)O2)[C@H](C)[C@@H](O[C@@H]2O[C@H](C)C[C@H](N(C)C)[C@H]2O)[C@](C)(O)C[C@@H](C)CN(C)[C@H](C)[C@@H](O)[C@]1(C)O | 101 |
| CNS(=O)(=O)Cc1ccc2[nH]cc(CCN(C)C)c2c1 | 84.1 |
| COc1ccc(CN(C(=O)[C@@H](N)Cc2c(C)cc(C(N)=O)cc2C)[C@@H](C)c2ncc(-c3ccccc3)[nH]2)cc1C(=O)O | 113 |
| COCCc1ccc(OCC(O)CNC(C)C)cc1 (stereo not shown) | 77.7 |
| OCc1ccccc1 | 132 |
| CCN(CC)C(=O)N1CCN(C)CC1 | 98.8 |
